Results gathered from unrelated publications.
Compare with care: the assays were run in different laboratories. Several values in a cell are separate wells, animals, samples, runs or records. Numbers after ± are the reported error.
rep main protease: Replicase polyprotein 1ab, main protease (rep, Severe acute respiratory syndrome coronavirus 2, UniProt P0DTD1)

SMILES	tested on	assay	system	conditions	quantity	value
C/C(=C\c1ccc(C(=O)O)cc1)c1ccc2c(c1)C(C)(C)CCC2(C)C	SARS-CoV-2	viral replication	Vero E6, USA-WA1/2020	2.5 µM	inhibition	41.1%
Nc1ncnc2c([C@@H]3N[C@H](CO)[C@@H](O)[C@H]3O)c[nH]c12	Lassa mammarenavirus	viral replication	HeLa, Josiah	3.1 µM	inhibition	5.6%
Fc1ccc(-c2ccc(CN3CCN(c4cccc5ccoc45)CC3)[nH]2)cc1	SARS-CoV-2	viral replication	Vero E6, USA-WA1/2020	2.5 µM	inhibition	67.6%
O=C(O[C@@H]1Cc2c(O)cc(O)cc2O[C@@H]1c1cc(O)c(O)c(O)c1)c1cc(O)c(O)c(O)c1	SARS-CoV-2	cytopathic effect	Vero E6	50 µM, first run	inhibition	90%
CCC(CC)COC(=O)[C@H](C)N[P@](=O)(OC[C@H]1O[C@@](C#N)(c2ccc3c(N)ncnn23)[C@H](O)[C@@H]1O)Oc1ccccc1	SARS-CoV-2	viral replication, measured: nucleocapsid	NHBE, Omicron BA.5	1 µM, 3 h pretreatment	inhibition	77.7%
Cn1cnc(Cn2c(=O)[nH]/c(=N\c3cc4cn(C)nc4cc3Cl)n(Cc3cc(F)c(F)cc3F)c2=O)n1	SARS-CoV-2	viral replication	Vero C1008, XBB.1	12.5 µM	inhibition	100%
CCOC(=O)[C@H]1O[C@@H]1C(=O)N[C@@H](CC(C)C)C(=O)NCCC(C)C	rep main protease	reporter gene (mKate2), inhibitor		20 µM	inhibition	1.96%
COc1ccc(NC(=O)c2ccc(-c3ccc(-c4noc(C)n4)cc3C)cc2)cc1N1CCN(C)CC1	SARS-CoV-2	viral replication	Vero E6, USA-WA1/2020	2.5 µM	inhibition	41.9%
COc1ccc(C[C@@H]2c3cc(Oc4cc(C[C@@H]5c6cc(O)c(OC)cc6CCN5C)ccc4O)c(OC)cc3CCN2C)cc1	SARS-CoV-2	viral cytopathic effect	Vero E6	12.5 µM	inhibition	0%
O=C(CSc1nc2ccccc2c(=O)[nH]1)NNC(=O)c1ccccc1Br	SARS-CoV-2	viral replication, plaque reduction		31.25 µM	inhibition	38.2 ± 4.29%
C[C@H](NC(=O)Cc1cc(F)cc(F)c1)C(=O)N[C@H](C(=O)OC(C)(C)C)c1ccccc1	rep main protease	reporter gene (Gaussia luciferase), inhibitor		20 µM	inhibition	1.84%
CC(C)/N=c1\cc2n(-c3ccc(Cl)cc3)c3ccccc3nc-2cc1Nc1ccc(Cl)cc1	SARS-CoV-2	viral replication	Vero E6, USA-WA1/2020	2.5 µM	inhibition	49.4%
CNC(=O)[C@@]1(O)C(=O)n2c(c(OC)c3ccccc32)-c2[nH]c3ccc(Cl)cc3c21	SARS-CoV-2	viral replication, mNeonGreen reporter virus		50 µM	inhibition	0.44%
Cc1nn(-c2ccc(Cl)cc2)c2c1C(c1ccc(-c3ccccc3)cc1)C(C#N)=C(N)O2 (stereo not shown)	SARS-CoV-2	viral replication	Vero	10 µM	inhibition	50.3%
CNC(=O)[C@@H](NC(=O)[C@H](CC(C)C)[C@H](O)C(=O)NO)C(C)(C)C			TN population, mouse	intravenous, 120 µg/mouse, 24 h, preincubated with venom, added: Daboia russelii venom 2.5 x LD50	survival	100%
CC(C)=CCc1c(O)ccc(C(=O)/C=C/c2ccc(O)cc2)c1O	SARS-CoV-2	viral cytopathic effect	Vero E6	6.25 µM	inhibition	0%
CC(C)(C)[C@H](NC(=O)C(F)(F)F)C(=O)N1C[C@H]2[C@@H]([C@H]1C(=O)N[C@H](C#N)C[C@@H]1CCNC1=O)C2(C)C	SARS-CoV-2	viral replication	Vero E6	0.313 µM	inhibition	1.25% and 1.54% and 7.67%
Cc1c(Cl)c(=O)oc2cc(OP(=O)(OCCCl)OCCCl)ccc12	SARS-CoV-2	viral replication	Vero E6, USA-WA1/2020	2.5 µM	inhibition	46.5%
COc1c2c(cc3oc(-c4ccccc4)cc(=O)c13)OC(C)(C)C=C2	SARS-CoV-2	viral replication	mNeonGreen reporter	50 µM	inhibition	97.8%
Cc1nn(-c2ccc(Cl)cc2)c2c1C(c1ccc(Cl)c(Cl)c1)C(C#N)=C(N)O2 (stereo not shown)	SARS-CoV-2	viral replication	Vero	10 µM	inhibition	27.8%
Cn1cnc(Cn2c(=O)[nH]/c(=N\c3cc4cn(C)nc4cc3Cl)n(Cc3cc(F)c(F)cc3F)c2=O)n1			human, severe renal impairment	oral, 375 mg	any TEAE, moderate severity	0%
O=C(/C=C/c1ccc(O)c(O)c1/C=C/c1ccc(O)c(O)c1)O[C@H](Cc1ccc(O)c(O)c1)C(=O)O	SARS-CoV-2	cytopathic effect	Vero E6	100 µM, first run	inhibition	50%
O=C(CSc1nc2c(c(=O)[nH]1)CCCC2)NNC(=O)c1ccc([N+](=O)[O-])cc1	SARS-CoV-2	virucidal activity, plaque reduction		125 µM	inhibition	38.9 ± 2.31%
CC(C)(O)c1ccc2c(c1)C(=CCCN1CCC(O)(c3ccc(Cl)cc3)C(C)(C)C1)c1cccnc1CO2 (stereo not shown)	SARS-CoV-2	viral replication	Vero E6, USA-WA1/2020	2.5 µM	inhibition	65.4%
CC[C@H](C)[C@H](NC(=O)[C@H](CC(C)C)NC(=O)[C@H](Cc1c[nH]c2ccccc12)NC(=O)[C@H](CCC(N)=O)NC(=O)[C@@H](NC(=O)[C@H](Cc1ccccc1)NC(=O)[C@H](C)NC(=O)[C@H](CCCCNC(=O)COCCOCCNC(=O)COCCOCCNC(=O)CC[C@H](NC(=O)CCCCCCCCCCCCCCCCCCC(=O)O)C(=O)O)NC(=O)[C@H](CCC(N)=O)NC(=O)[C@H](C)NC(=O)[C@@H](NC(=O)[C@H](CCCCN)NC(=O)[C@H](CC(=O)O)NC(=O)[C@H](CC(C)C)NC(=O)C(C)(C)NC(=O)[C@@H](NC(=O)[C@H](CO)NC(=O)[C@H](Cc1ccc(O)cc1)NC(=O)[C@H](CC(=O)O)NC(=O)[C@H](CO)NC(=O)[C@@H](NC(=O)[C@H](Cc1ccccc1)NC(=O)[C@@H](NC(=O)CNC(=O)[C@H](CCC(=O)O)NC(=O)C(C)(C)NC(=O)[C@@H](N)Cc1ccc(O)cc1)[C@@H](C)O)[C@@H](C)O)[C@@H](C)CC)[C@@H](C)CC)C(C)C)C(=O)N[C@@H](C)C(=O)NCC(=O)NCC(=O)N1CCC[C@H]1C(=O)N[C@@H](CO)C(=O)N[C@@H](CO)C(=O)NCC(=O)N[C@@H](C)C(=O)N1CCC[C@H]1C(=O)N1CCC[C@H]1C(=O)N1CCC[C@H]1C(=O)N[C@@H](CO)C(N)=O			healthy subjects, single ascending dose	5.0 mg, baseline	serum lipase	26.7 ± 9.3 U/L

Repeated from above:
SMILES	tested on	assay	system	conditions	quantity	value
O=C(/C=C/c1ccc(O)c(O)c1/C=C/c1ccc(O)c(O)c1)O[C@H](Cc1ccc(O)c(O)c1)C(=O)O	SARS-CoV-2	cytopathic effect	Vero E6	100 µM, first run	inhibition	50%
CC[C@H](C)[C@H](NC(=O)[C@H](CC(C)C)NC(=O)[C@H](Cc1c[nH]c2ccccc12)NC(=O)[C@H](CCC(N)=O)NC(=O)[C@@H](NC(=O)[C@H](Cc1ccccc1)NC(=O)[C@H](C)NC(=O)[C@H](CCCCNC(=O)COCCOCCNC(=O)COCCOCCNC(=O)CC[C@H](NC(=O)CCCCCCCCCCCCCCCCCCC(=O)O)C(=O)O)NC(=O)[C@H](CCC(N)=O)NC(=O)[C@H](C)NC(=O)[C@@H](NC(=O)[C@H](CCCCN)NC(=O)[C@H](CC(=O)O)NC(=O)[C@H](CC(C)C)NC(=O)C(C)(C)NC(=O)[C@@H](NC(=O)[C@H](CO)NC(=O)[C@H](Cc1ccc(O)cc1)NC(=O)[C@H](CC(=O)O)NC(=O)[C@H](CO)NC(=O)[C@@H](NC(=O)[C@H](Cc1ccccc1)NC(=O)[C@@H](NC(=O)CNC(=O)[C@H](CCC(=O)O)NC(=O)C(C)(C)NC(=O)[C@@H](N)Cc1ccc(O)cc1)[C@@H](C)O)[C@@H](C)O)[C@@H](C)CC)[C@@H](C)CC)C(C)C)C(=O)N[C@@H](C)C(=O)NCC(=O)NCC(=O)N1CCC[C@H]1C(=O)N[C@@H](CO)C(=O)N[C@@H](CO)C(=O)NCC(=O)N[C@@H](C)C(=O)N1CCC[C@H]1C(=O)N1CCC[C@H]1C(=O)N1CCC[C@H]1C(=O)N[C@@H](CO)C(N)=O			healthy subjects, single ascending dose	5.0 mg, baseline	serum lipase	26.7 ± 9.3 U/L
COc1ccc(NC(=O)c2ccc(-c3ccc(-c4noc(C)n4)cc3C)cc2)cc1N1CCN(C)CC1	SARS-CoV-2	viral replication	Vero E6, USA-WA1/2020	2.5 µM	inhibition	41.9%
CC(C)=CCc1c(O)ccc(C(=O)/C=C/c2ccc(O)cc2)c1O	SARS-CoV-2	viral cytopathic effect	Vero E6	6.25 µM	inhibition	0%
